Results gathered from unrelated publications.
Compare with care: the assays were run in different laboratories. Several values in a cell are separate wells, animals, samples, runs or records. Numbers after ± are the reported error. Values after ≈ are worked out from the molar mass of the structure shown.
UCHL1: Ubiquitin carboxyl-terminal hydrolase isozyme L1 (UCHL1, Homo sapiens, UniProt P09936)
Chain of UniProt P09936 (whole entry, looked up): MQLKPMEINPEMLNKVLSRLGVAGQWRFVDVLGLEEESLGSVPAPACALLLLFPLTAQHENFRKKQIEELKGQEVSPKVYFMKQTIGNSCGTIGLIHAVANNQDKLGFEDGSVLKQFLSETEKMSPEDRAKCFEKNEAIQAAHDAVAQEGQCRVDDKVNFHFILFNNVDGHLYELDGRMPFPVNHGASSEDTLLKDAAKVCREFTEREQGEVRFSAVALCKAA

| SMILES | tested on | assay | test system | setting | how to read | measurement | value |
| --- | --- | --- | --- | --- | --- | --- | --- |
| Nc1nc(-c2ccccc2)nc2[nH]nc(Nc3ccc(C(F)(F)F)cc3)c12 | coxsackievirus B3 | – | 31-1-93, NMRI mice, CVB3 chronic myocarditis | oral, 100 mg/kg twice daily, day 10, dosed days 0 to 6, score scale 0 to 7 | direction not given | clinical score | 0.1 |
| CC(C)(C)c1cc(/C=C(\C#N)C(N)=S)cc(C(C)(C)C)c1O | Toxoplasma gondii | parasite growth | HFF, bradyzoite, glutamine-induced | – | – | EC90 | 4.69 µM |
| Cc1cccc(CNC(=O)c2cn(CCNC(=O)c3ccccc3Sc3c([N+](=O)[O-])ncn3C)c3cc4c(cc3c2=O)OC(F)(F)O4)n1 | HIV-1 | viral cytopathic effect, XTT | CEM-SS, RF | together with: glutathione 1 mM | – | EC50 | 10 ± 1.81 µM |
| Oc1ccc(-c2nc(-c3ccc(OC4CCCC4)cc3)no2)cc1 | Clostridioides difficile | – | ATCC 43255 | 45 µM, spores | – | activity | active |
| COc1ccc(Nc2cnnc3ccc(-c4ccc(N5CCN(C)CC5)cc4)cc23)nc1 | Leishmania donovani | – | B10R cells | – | – | EC50 | 1.6 µM |
| CCc1nc(N)nc(N)c1-c1ccc(Cl)cc1 | Toxoplasma gondii | [3H]uracil incorporation | human fibroblasts, RH wild type | 5 µM | – | parasite survival | 98.9% |
| OC[C@H]1O[C@@H](O[C@@H]2[C@@H](O)[C@H](O[C@@H]3[C@@H](O)[C@H](O[C@H]4[C@H](O)[C@@H](CO)OC(O)[C@@H]4O)O[C@H](CO)[C@H]3O)O[C@H](CO)[C@H]2O)[C@H](O)[C@@H](O)[C@@H]1O (stereo partly shown) | Bacteroides uniformis | binding, ITC | – | pH 7.0, 25 °C, distal domain | – | ΔH | -31.4 kcal/mol |
| COC[C@H]1O[C@@H]2O[C@@H]3[C@@H](OC)[C@@H](OC)[C@@H](O[C@@H]4[C@@H](OC)[C@@H](OC)[C@@H](O[C@@H]5[C@@H](OC)[C@@H](OC)[C@@H](O[C@@H]6[C@@H](OC)[C@@H](OC)[C@@H](O[C@@H]7[C@@H](OC)[C@@H](OC)[C@@H](O[C@@H]1[C@@H](OC)[C@H]2OC)O[C@@H]7COC)O[C@@H]6COC)O[C@@H]5COC)O[C@@H]4COC)O[C@@H]3COC | Escherichia coli | LuxR reporter, antagonist | DH5α sensor strain | 20 µM, together with: OHHL 200 nM | – | inhibition | 4 ± 12% |
| Cc1ncc([N+](=O)[O-])n1CCO | Clostridioides difficile | scanning electron microscopy | ATCC 43255 | 8 x MIC, 24 h | – | cell morphology | no effect |
| OC[C@H]1O[C@@H](Oc2cc3c(O[C@@H]4O[C@H](CO)[C@@H](O)[C@H](O)[C@H]4O)cc(O)cc3[o+]c2-c2ccc(O)c(O)c2)[C@H](O)[C@@H](O)[C@@H]1O | HIV-1 | viral infection | TZM-bl, BaL (CCR5-tropic) | 48 h | – | IC50 | > 100 µM |
| CC(=Nc1ccc(N=Cc2cnccn2)cc1)N(C)C | Necator americanus | – | infected hamsters, small intestine | oral, 50 mg/kg single, 3 h | – | worm count | 1.8 ± 0.8 |
| O=c1[nH]c(NCc2ccc(Cl)c(Cl)c2)nc2ncn(CCN3CCOCC3)c12 | Clostridioides difficile | agar dilution anaerobic | ATCC 4381 | 48 h | – | MIC | 1 µg/mL |
| CNC(=O)C(C#N)=Cc1c(Oc2ccc(Cl)cc2)nc2ccccn2c1=O | UCHL1 | covalent, intact protein LC-MS | – | 12.5 µM | – | labelling | 12.3% |
| CCCC(=O)OCSc1ccccc1C(=O)NCCOc1ccnc2ccc(C)cc12 | HIV-1 | virus-induced cytopathic effect, inhibitor, XTT | CEM-SS, RF | 6 days | – | EC50 | 4.41 ± 3.41 µM |
| OC(Cn1cncn1)(Cn1cncn1)c1ccc(F)cc1F | Nakaseomyces glabratus | – | RPMI 1640 | 24 h, 35 °C | – | MIC | 50 µM |
| CCCC(=O)OCSc1ccccc1C(=O)NCCn1cc(C(=O)NCc2ncccc2C)c(=O)c2cc3c(cc21)OCO3 | HIV-1 | virus-induced cytopathic effect, inhibitor, XTT | CEM-SS, RF | 6 days | – | EC50 | 0.51 ± 0.02 µM |
| NC(=O)c1ncn([C@@H]2O[C@H](CO)[C@@H](O)[C@H]2O)n1 | hepatitis E virus | viral replication, Renilla luciferase replicon | S10-3 replicon, genotype 1 | 3.12 µM, 48 h | – | inhibition | 62.5% |
| CCCCC[C@H](O)/C=C/[C@@H]1[C@@H](C/C=C\CCCC(=O)O)[C@@H](O)C[C@H]1O | Leishmania martiniquensis | intracellular amastigote growth, alamarBlue | THP-1-derived macrophages | 48 h | – | IC50 | 19.4 ± 6.25 µM |
| CN[C@H](CC(C)C)C(=O)N[C@H]1C(=O)N[C@@H](CC(N)=O)C(=O)N[C@H]2C(=O)N[C@H]3C(=O)N[C@H](C(=O)N[C@H](C(=O)O)c4cc(O)cc(O)c4-c4cc3ccc4O)[C@H](O)c3ccc(c(Cl)c3)Oc3cc2cc(c3O[C@@H]2O[C@H](CO)[C@@H](O)[C@H](O)[C@H]2O[C@H]2C[C@](C)(N)[C@H](O)[C@H](C)O2)Oc2ccc(cc2Cl)[C@H]1O | Staphylococcus aureus | – | MRSA ATCC 43300 | 1 × MIC | – | post-antibiotic effect | 0.276 h |
| CC(=O)NC[C@H]1CN(c2ccc(N3CCOCC3)c(F)c2)C(=O)O1 | Streptococcus pneumoniae | – | penicillin-resistant, 10 isolates | pH 5.5 | – | MIC50 | 1 µg/mL (≈ 2.96 µM) |

| SMILES | tested on | assay | test system | setting | how to read | measurement | value |
| --- | --- | --- | --- | --- | --- | --- | --- |
| CC(=O)Nc1nc(-c2cccc3ccccc23)cs1 | Trypanosoma cruzi | reporter translation, Renilla luciferase mRNA translation | cell-free extract | 40 µM | relative to: DMSO | inhibition | -6.2% |
| COc1cc(C#CC(=O)c2cccc(Cl)c2)ccc1O | Pseudomonas aeruginosa | static biofilm | PA14 | 10 µM, 24 h, static | relative to: DMSO | biofilm formation | 67% |
| CC(=O)N(c1ccccc1)c1nc(C=C(C#N)C(=O)NC2CC2)cs1 | UCHL1 | covalent, intact protein LC-MS | – | 12.5 µM | – | labelling | 9.01% |
| COc1cccc(C(=O)C#Cc2ccc(O)c(OC)c2)c1 | Pseudomonas aeruginosa | RT-qPCR, refers to: rhlA | biofilm cells | 10 µM, 24 h | relative to: untreated | mRNA level | 46% |
| CCc1nn(C)c2nc(-c3ccc(C(=O)O)cc3)nc(NCc3ccc(F)cc3)c12 | Cryptosporidium parvum | – | HCT-8 | EC50, 3 h | relative to: DMSO control | parasite number | 105% and 109% and 110% and 106% |
| O=C(c1ccc(Nc2nccc(-c3cc4ccccc4s3)n2)cc1)N1CCC(N2CCCC2)CC1 | Toxoplasma gondii | parasite growth | HFF, bradyzoite, glutamine-induced | – | – | EC90 | 15 µM |
| Cc1ccc(NC(=O)N2Cc3[nH]cnc3C[C@H]2c2nc(-c3ccc4c(c3)OCO4)no2)cc1 | Caenorhabditis elegans | – | N2 | 100 µM | – | mean lifespan | 18.6 days |
| S=C(S)N1CCCC1 | Toxoplasma gondii | parasite growth | HFF, bradyzoite, alkaline-induced | – | – | EC90 | 30 µM |
| COc1cc(C#CC(=O)c2cccc(C)c2)ccc1O | Pseudomonas aeruginosa | static biofilm | PA14 | 10 µM, 24 h, static | relative to: DMSO | biofilm formation | 77% |
| N=C(N)c1ccc(OCc2ccc(Br)cc2COc2ccc(C(=N)N)cc2)cc1 | Pseudomonas aeruginosa | checkerboard | ATCC 27853 | unit not given, together with: rifampicin | lower = stronger synergy | FICI | 0.094 |
| OC[C@H]1O[C@@H](O[C@@H]2[C@@H](O)[C@H](O[C@@H]3[C@@H](O)[C@H](O[C@@H]4[C@@H](O)[C@H](O[C@H]5[C@H](O)[C@@H](CO)OC(O)[C@@H]5O)O[C@H](CO)[C@H]4O)O[C@H](CO)[C@H]3O)O[C@H](CO)[C@H]2O)[C@H](O)[C@@H](O)[C@@H]1O (stereo partly shown) | Bacteroides uniformis | binding, ITC | – | pH 7.0, 25 °C, middle domain | – | ΔG | -24.8 kcal/mol |
| CC(C)n1ncc2c(C(=O)NCC3(C)CNC3)cc(C3CC3)nc21 | Enterovirus D68 | viral replication | RD, US/MO/14-18947 | 0.03 µM | relative to: untreated | plaque area | 105% and 89.5% |
| Cl.Cl.NCc1ccc(-c2nc(-c3ccc(CN4CCCC4)cc3)no2)cc1 | Clostridioides difficile | spore germination | ATCC 43255 | 45 µM | – | activity | inactive |
| COc1cc(-c2[nH]nnc2C(=O)c2ccccc2)ccc1O | Pseudomonas aeruginosa | static biofilm | PA14 | 10 µM, 24 h, static | relative to: DMSO | biofilm formation | 70% |
| Oc1ccc2c(c1)OC[C@]1(O)Cc3cc(O)c(O)cc3[C@H]21 | Toxoplasma gondii | parasite growth | HFF, bradyzoite, glutamine-induced | – | – | EC90 | 1.1 µM |
| COc1cc(C#CC(O)CC(C)C)ccc1O (stereo not shown) | Pseudomonas aeruginosa | static biofilm | PA14 | 10 µM, 24 h, static | relative to: DMSO | biofilm formation | 75% |
| CCCCCCCCCC(=O)N[C@@H](Cc1c[nH]c2ccccc12)C(=O)N[C@H](CC(N)=O)C(=O)N[C@@H](CC(=O)O)C(=O)N[C@@H]1C(=O)NCC(=O)N[C@@H](CCCN)C(=O)N[C@@H](CC(=O)O)C(=O)N[C@H](C)C(=O)N[C@@H](CC(=O)O)C(=O)NCC(=O)N[C@H](CO)C(=O)N[C@@H]([C@H](C)CC(=O)O)C(=O)N[C@@H](CC(=O)c2ccccc2N)C(=O)O[C@@H]1C | Staphylococcus aureus | – | SH1000 | together with: lysophosphatidylethanolamine, molar ratio 2 | – | MIC | 1 µg/mL |
| CC(C)(C)c1ccc(S(=O)(=O)/C=C/C#N)cc1 | Toxoplasma gondii | parasite growth | HFF, bradyzoite, alkaline-induced | – | – | EC90 | 11.4 µM |
| COc1cc(C#CC(O)c2ccccc2OC)ccc1O (stereo not shown) | Pseudomonas aeruginosa | static biofilm | PA14 | 10 µM, 24 h | relative to: DMSO | biofilm formation | 61% |
| CCc1cc(Nc2cc(=O)n(CCCCO)c(=O)[nH]2)ccc1C | Clostridioides difficile | agar dilution anaerobic | 3581 | 48 h | – | MIC | 8 µg/mL |

Some of these lines once more:
| SMILES | tested on | assay | test system | setting | how to read | measurement | value |
| --- | --- | --- | --- | --- | --- | --- | --- |
| Cl.Cl.NCc1ccc(-c2nc(-c3ccc(CN4CCCC4)cc3)no2)cc1 | Clostridioides difficile | spore germination | ATCC 43255 | 45 µM | – | activity | inactive |
| CC(=O)NC[C@H]1CN(c2ccc(N3CCOCC3)c(F)c2)C(=O)O1 | Streptococcus pneumoniae | – | penicillin-resistant, 10 isolates | pH 5.5 | – | MIC50 | 1 µg/mL (≈ 2.96 µM) |
| OC[C@H]1O[C@@H](Oc2cc3c(O[C@@H]4O[C@H](CO)[C@@H](O)[C@H](O)[C@H]4O)cc(O)cc3[o+]c2-c2ccc(O)c(O)c2)[C@H](O)[C@@H](O)[C@@H]1O | HIV-1 | viral infection | TZM-bl, BaL (CCR5-tropic) | 48 h | – | IC50 | > 100 µM |
| Cc1cccc(CNC(=O)c2cn(CCNC(=O)c3ccccc3Sc3c([N+](=O)[O-])ncn3C)c3cc4c(cc3c2=O)OC(F)(F)O4)n1 | HIV-1 | viral cytopathic effect, XTT | CEM-SS, RF | together with: glutathione 1 mM | – | EC50 | 10 ± 1.81 µM |
| COc1cc(C#CC(O)c2ccccc2OC)ccc1O (stereo not shown) | Pseudomonas aeruginosa | static biofilm | PA14 | 10 µM, 24 h | relative to: DMSO | biofilm formation | 61% |
| COc1cc(C#CC(=O)c2cccc(Cl)c2)ccc1O | Pseudomonas aeruginosa | static biofilm | PA14 | 10 µM, 24 h, static | relative to: DMSO | biofilm formation | 67% |
| CCc1cc(Nc2cc(=O)n(CCCCO)c(=O)[nH]2)ccc1C | Clostridioides difficile | agar dilution anaerobic | 3581 | 48 h | – | MIC | 8 µg/mL |
